Measured values gathered from unrelated publications.
Each numbered part is a random draw from the data of one study; scales do not carry over between parts.

Series 1
Target: RING finger protein unkempt homolog, zinc fingers 1-6, GST-SBP tag (UNK, Homo sapiens, UniProt Q9C0B0, residues 30-357)
Technique: RNA Bind-n-Seq
Form: RNA
Medium: in vitro
Concentration: not given
Notes: RNA with constant flanks, human-mouse chimeric sites, ends assumed
Baseline: input RNA pool
Direction: higher = stronger binding
Shared flanks, not repeated: GGGAGUUCUACAGUCCGACGAUC … CAACAGAGGAUUGAGCAUCA
Target sequence (chain): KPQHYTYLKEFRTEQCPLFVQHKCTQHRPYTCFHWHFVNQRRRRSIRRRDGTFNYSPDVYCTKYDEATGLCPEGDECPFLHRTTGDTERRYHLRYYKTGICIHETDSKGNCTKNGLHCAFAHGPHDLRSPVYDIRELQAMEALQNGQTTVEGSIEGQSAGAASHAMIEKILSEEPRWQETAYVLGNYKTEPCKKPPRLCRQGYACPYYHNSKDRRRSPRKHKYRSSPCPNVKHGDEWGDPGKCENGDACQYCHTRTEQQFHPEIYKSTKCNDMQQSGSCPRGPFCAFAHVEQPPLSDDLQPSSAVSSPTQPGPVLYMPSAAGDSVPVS
Strand	bound/input enrichment
UUCAAAGAAAAGGGCAGCUGUGUCAUUUCAUAAGUAAAACUGCAUCCGGGAAAUUCUGUUCUUUUGUUUUUAGUUUUCCCAAAUGAAGCCAAAGUGUGUGUUGAAGAACUGAGAAAAAAU	0.42 ratio
GUACUGCAACAGCAGGGAAAACUGCAGGAAGCACUGAUGCAUUAUAAGGAGGCUAUUCGAAUCAGUCCUACCUUUGCUGAUGCCUACUCUAAUAUGGGAAACACUCUAAAGGAGAUGCAG	0.205 ratio
CUGAGGAAUACCACUGAAGAGACAUUAAAGAAUCAUUUGAGGGCUCUGUUCGUGCAAGAAUAGUCACUGAUCGGGAAACUGGUUCUUCCAAAGGGUUUGGUUUUGUAGACUUUAAUAGUG	0.947 ratio
GGAAGUACAAUGAUGGAGAUUGAUGGUGACAAAGGCAAGCAGGGCGGUCCCACCUACUACAUAGACACCAAUGCCCUCCGCGUGCCCAGGGAGAAUAUGGAGGCCAUCUCACCACUCAAG	0.245 ratio
UUGAAAACUGAUUCAAGUAAGUUUGAGUAUCACAAUGUUAGCUUUCUAAUUCCAUAAAAGUACUUGGUUUUUACAGUAACCCCACAUACAUCACCCCCCGUUUAUAAGUAAAGAGCAACU	2.03 ratio
AGGAGGAGGUUAAAGGGUGAGAGUGGGGUGGAAGACUGUGUCAUGGCCCUAGAAACCCUGUUCAGUGUCCUGCUUUCUCUGUGCAGACUGAUGGCCCCCUACACACCCUUUCUGACUGAG	0.0798 ratio
GGGACUGAUUCAUCCCAAGGACAGGCCGCCCAGUCUGAUGCCUGGACUGAUGACAGUAUGUUAGGGCCUAGUCAAAAUGUUGAAGCUGAGUCAAUUCAGGAUGCCAUGAGUAUGGAAGAG	0.385 ratio
GGAAGCACAAUGAUGGAGAUUGAUGGUGACAAAGGCAAGCAGGGCGGUCCCACCUACUACAUAGACACCAAUGCCCUCCGCGUGCCCAGGGAGAACAUGGAGGCCAUCUCACCACUCAAG	0.185 ratio
UUUCUACUGCAGCAGACGAUGCUAAGAAUUAAGGAUCCUAAGAAGUCCCUGGAUUUUUAUACGAGGGUUCUUGGACUGACCCUCCUGCAAAAAUGUGACUUCCCUGCUAUGAAGUUCUCG	0.282 ratio
AUAGAUGAAAUUGAUGUGGACCAGGAAGGAAUUGCUGAAAUGAUCCUGGAUGAAAAUGCUAUUGCUCAAGUUCCACGCCCUGGCACAUCUUUGAAGCUCCCUGGAACUAACCAAACAGGA	0.4 ratio
CACGUGUCUGCAGUACUUGAUGUGGAUUACUCUCCCACUGGGAAGGAAUUUGUGUCUGCCAGCUUUGAUAAGUCUAUUAGAAUCUUUCCUGUGGACAAGAGCCGAAGCAGGGAAGUGUAU	0.217 ratio

Series 2
Target: Centromere-binding protein 1, full length, N-terminal tag (CBF1, Saccharomyces cerevisiae, UniProt P17106, residues 1-351)
Chain of UniProt P17106 (whole entry, looked up): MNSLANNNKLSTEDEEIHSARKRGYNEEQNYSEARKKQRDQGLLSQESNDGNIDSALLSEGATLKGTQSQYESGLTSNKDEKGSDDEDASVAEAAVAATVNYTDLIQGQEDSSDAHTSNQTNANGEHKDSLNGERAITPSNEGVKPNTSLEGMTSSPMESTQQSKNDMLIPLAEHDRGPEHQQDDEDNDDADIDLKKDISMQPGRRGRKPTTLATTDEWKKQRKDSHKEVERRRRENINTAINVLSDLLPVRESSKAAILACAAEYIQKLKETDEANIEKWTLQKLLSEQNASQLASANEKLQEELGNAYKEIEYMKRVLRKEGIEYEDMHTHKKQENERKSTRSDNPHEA
Technique: protein-binding microarray
Form: double-stranded DNA, one strand shown
Medium: in vitro
Concentration: 0.8 µM
Notes: whole 60-bp probe, no competitor
Direction: higher = stronger binding
Shared flanks, not repeated: … GTCTTGATTCGCTTGACGCTGCTG
Strand	fluorescence intensity
GAAAGAAACGGCGGGCGGGTGATAATGCGGCGATAG	531 a.u.
GAAAAGCATTATTCACACCTGATAAGGATTTTCTAG	773 a.u.
GAAAGCTGTTAAAGCTGCGTCACGAGTAATGAGTAG	1290 a.u.
CTATCTTGTATTCATGTGATTGTAAATAATATTTTC	1460 a.u.
GAATGGATCTTTGCTTGCGTCACCAGTCCATCCTAG	529 a.u.
TGTACGAAGCTATCTGATGTAGGTATAGTAGTTAGG	525 a.u.
CTACTTTAAAAATACCACGCCATTTTAGTAGGCTTC	513 a.u.
CCTAACTACTATAATCACATGCCATAGCTTCGTACA	1670 a.u.
TGTACGAAGCTATCACGCATGCTTATAGTAGTTAGG	590 a.u.
TGTACGAAGCTATTTGATGTGACTATAGTAGTTAGG	527 a.u.
CCTAACTACTATAGTCAGGTGGAATAGCTTCGTACA	731 a.u.
CTAGTTCTTCGAAGGCACATGGCGCCCCTATAATTC	605 a.u.
CCTAACTACTATAGTGGTGGGACATAGCTTCGTACA	508 a.u.
GAATTCATGCGATTTCTCCTGATAATAGACGATTAG	531 a.u.
GAAGAAAAATTACATCAGCGAACTAATGCTTTCTAG	512 a.u.

Series 3
Target: Sal-like protein 4, full length isoform A (SALL4, Homo sapiens, UniProt Q9UJQ4, residues 1-1053)
Chain of UniProt Q9UJQ4 (whole entry, looked up): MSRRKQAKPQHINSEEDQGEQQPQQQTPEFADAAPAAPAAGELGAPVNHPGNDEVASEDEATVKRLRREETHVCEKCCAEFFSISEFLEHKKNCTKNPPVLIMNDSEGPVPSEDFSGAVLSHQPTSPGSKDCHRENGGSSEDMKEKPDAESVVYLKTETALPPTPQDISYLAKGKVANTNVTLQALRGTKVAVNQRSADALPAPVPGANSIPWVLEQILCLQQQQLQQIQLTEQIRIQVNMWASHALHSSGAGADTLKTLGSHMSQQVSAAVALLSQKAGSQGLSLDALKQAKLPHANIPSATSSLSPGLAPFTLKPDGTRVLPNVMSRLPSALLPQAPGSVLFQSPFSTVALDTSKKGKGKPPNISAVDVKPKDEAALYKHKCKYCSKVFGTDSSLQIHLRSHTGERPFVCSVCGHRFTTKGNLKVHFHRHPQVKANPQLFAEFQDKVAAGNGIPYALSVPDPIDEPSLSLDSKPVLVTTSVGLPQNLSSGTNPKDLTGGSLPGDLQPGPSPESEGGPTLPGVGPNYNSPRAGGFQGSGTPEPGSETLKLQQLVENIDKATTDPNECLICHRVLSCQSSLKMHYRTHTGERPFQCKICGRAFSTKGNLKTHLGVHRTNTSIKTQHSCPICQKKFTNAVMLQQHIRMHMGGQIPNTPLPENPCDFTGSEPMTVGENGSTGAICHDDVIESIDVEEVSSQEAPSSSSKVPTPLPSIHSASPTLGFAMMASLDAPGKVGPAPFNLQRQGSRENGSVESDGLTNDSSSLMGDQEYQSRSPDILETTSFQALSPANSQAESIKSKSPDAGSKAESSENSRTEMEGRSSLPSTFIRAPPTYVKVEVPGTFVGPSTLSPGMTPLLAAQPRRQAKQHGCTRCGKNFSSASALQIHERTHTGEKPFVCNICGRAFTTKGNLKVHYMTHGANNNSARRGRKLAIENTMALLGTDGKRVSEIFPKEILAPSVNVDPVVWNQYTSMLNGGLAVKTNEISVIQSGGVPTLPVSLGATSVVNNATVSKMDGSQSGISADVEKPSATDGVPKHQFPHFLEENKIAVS
Technique: universal PBM
Form: double-stranded DNA, one strand shown
Medium: in vitro
Concentration: 600 nM
Notes: 8-mer, flanks averaged, mean of replicates
Direction: higher = stronger binding
Strand	E-score
CATCCCCA	-0.197
CTGAAGGA	-0.182
ATGCTTCG	0.00086
ACAGCGTC	-0.0122
GAAGTAGA	0.105
CAAGACCA	-0.11
AGGCTTTC	0.0354
CGGCTAGC	-0.32
CAGCACAC	-0.102
ATTCGAGG	-0.0614
CACCGACA	-0.187
GTATGCTA	0.158
ATTGAGAA	0.267
TAGGTAAA	0.277
GTGGGGCA	-0.255
AATTGGGT	0.19
AGAGCCCT	-0.173
CGCTGGAG	-0.207

Series 4
Target: RNA binding protein fox-1 homolog 2, RRM domain, GST-SBP tag (RBFOX2, Homo sapiens, UniProt O43251-10, residues 100-194)
Technique: RNA Bind-n-Seq
Form: RNA
Medium: in vitro
Concentration: 365 nM
Notes: natural RNA segment, single round, ends assumed
Baseline: no-protein control
Direction: higher = stronger binding
Shared flanks, not repeated: GGGAGUUCUACAGUCCGACGAUC … UGGAAUUCUCGGGUGCCAA
Residues (chain): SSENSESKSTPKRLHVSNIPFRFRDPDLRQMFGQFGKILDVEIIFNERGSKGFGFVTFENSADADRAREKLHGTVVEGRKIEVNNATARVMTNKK
Strand	RBNS enrichment (R)
UUUAAAGCCACAGUUGAGAGGCCACCCAUUGCCCGGCGCCUGGACAGUGAUCAUCUUGUUCAUCUUGUUCAGUCCUUUCUUGUGUGAUUGGAAUUAUUCAUCCCCUUUGA	0.317
GUUUAAUCUUUUUUAAUGAAAAAAAAUCAUGUUUAAAAUGGCAAAAGCCCAUCUUAUACACUUUUAUAUAGCUGCAAAAAAUUUAUAUCUGUACAGAUCUAACACUACGA	0.399
CCUUACUGUGGCAGCAGUGUCACUGUCACUGAAAUAAACGUAAGCCCUACCUUCUUUCUUGUUUGAUUGAUUUAGACACACUGGUGCUCUUACAGGUGGAGAAUGAGUGU	0.406
GGUUGAUGCUGCCACACUUUGUAGAGAGUUUAGCAACACAGUGUGCUUAGUCAGCGUAGGAAUCCUCACUAAAGCAGAAGAAGUUCCAUUCAAAGUGCCAAUGAUAGAGU	0.396
GUUAAUAAACUUUACACAGUAUAUAGACACAUUUUCUGCAAUGUACUGACAUCAGUGUCCAAUAUAUGGUAUAUUUUUAUAAUAUAAUAUCCUAGUAUGAUUGGUUAUAU	0.866
CAUUCUCAAAUGCCAGUGUGUUCACAUCUUCGCUCUGGCCAGCCCAUUCUGUAUUUAAAGCUUUUGAGGCCCAAUAAAAUAGUACGUGCUGUCUGCAGCCCUUAUUGAUC	0.443
UUUUUGGUUGCCUAGACAUCAGGUAAACAUUCAGUACACUAAAGAAACUAUCCUGGACACUCCCUCCUGCUUCCACCAAUUUUUUUCUCACCCCCUUUUCAAAAAUUGAA	0.75
UAGUGCCAGAUUACUAUUGGUGGCGUUUAAGAUGAAAGCAAGUUCAAAAUUUGUCAUUUUGGGUGUCAACAGCUAAAUGGUCUGGUUUUUACCCCUGUUUUGCCUUUUUU	0.363
UUCCGCAGCCGCCUCCUCUUCCUCCAGAGGCAACAUUCCUUAUUCACCAACUAGUCUCAAAAGAUUGUCUUAAGCCCUGACGAUGGCUGUCCCCAGCCACACCUUGGGGC	0.416
GAGGGGCUCUCUACCUUUGAAACUAUGAGAACGUCUUAAAUUAAUAUGAAUAUUUCUCUCCAUGUAUAGUGUGAGCUGCCAAUGCAUUAUCUUAAUACAUCAAGAAGGAA	0.367
CUUUCCAAAAAUGGAAGAUCCAAAAAUGGGGAUGUUUUAUGUACCCGGGUUAUUUUGUAUGAAUUCAAUCAAUUAGGAAAUAAAAAGAUUUUAAAUGUGUCUAAGGAGAA	0.957
UAAUUAUUGCCCAGUUAUUCUUAAGUAAGGACAAAGAAGGAAAUAUCAUCGUAUUUCUUUUUUUUAAUAAGGAAAAAAUAAUAUCCAUACAGUCAAGAUACAUAGUAAAU	0.483

Series 5
Target: Interferon regulatory factor 5, full length, phosphomimetic (IRF5, Homo sapiens, UniProt Q13568-2, residues 1-514, S451D/S453D/S456D/S462D)
Technique: protein-binding microarray
Form: double-stranded DNA, one strand shown
Medium: in vitro
Concentration: 940 nM top
Notes: 60-bp whole probe
With: salmon DNA 0.4 mg/ml
Baseline: random background probes
Direction: higher = stronger binding
Shared flanks, not repeated: GCCTAGCAC … GTCTTGATTCGCTTGACGCTGCTG
Strand	fitted relative affinity [z-score]
AACAGTTCATGTTTTGGAAAGTGCTAG	0.0723
GACGAACTGGGGTTTCGAGAGGTGCTA	1.71
GACGGTATCGGATATCGGGACGTGCTA	3.77
TTACGTATCCTTATCCTTTAGTGCTAG	1.34
GACCGACTGCTACTGCTGACGTGCTAG	-0.501
TTAGGTATTGGGTTTCGGTTAGTGCTA	7.32
GACGGACTGGCTCTCGGGACGTGCTAG	-0.251
TTAGAACTGGGGTATCGATCAGTGCTA	2.27
GACGGTATCCTTCTTCTGACGTGCTAG	0.873
TCAAAAAATGGAAATCTAACTGTGCTA	-0.15
TTAGGTATCGACTATCAGTTAGTGCTA	5.48
TTAGGACTGGACTATCGGTTCGTGCTA	-0.215
TTGGGACTGGGACTGGGTTAGTGCTAG	-0.245
TTACGTATCGGGACTGGGTTAGTGCTA	2.64
GACGGACTACTACTGCTGACGTGCTAG	-0.0832
TTAGGACTGGACTTTGGGTTAGTGCTA	-0.607
GACGGTCTCGGTATCAGGACGTGCTAG	4.11
TTAGGTCTCCCTCTCCTTTAGTGCTAG	0.516

A few entries again (series 2):
Strand	fluorescence intensity
TGTACGAAGCTATCTGATGTAGGTATAGTAGTTAGG	525 a.u.
GAATTCATGCGATTTCTCCTGATAATAGACGATTAG	531 a.u.
CTAGTTCTTCGAAGGCACATGGCGCCCCTATAATTC	605 a.u.
CCTAACTACTATAATCACATGCCATAGCTTCGTACA	1670 a.u.
